Assay results pooled from the literature.
Compare with care: the assays were run in different laboratories.
Organism: Staphylococcus aureus

Compound | assay | test system | conditions | MIC
CC[C@H](C)[C@H](NC(=O)[C@H](CCCCN)NC(=O)[C@H](CCCCN)NC(=O)CNC(=O)[C@H](CCCCN)NC(=O)[C@H](CC(C)C)NC(=O)[C@H](CCCCN)NC(=O)[C@H](CCCNC(=N)N)NC(=O)[C@@H](NC(=O)[C@H](CC(C)C)NC(=O)[C@H](CCCNC(=N)N)NC(=O)[C@@H](N)CCCNC(=N)N)[C@@H](C)CC)C(=O)N[C@@H](Cc1ccc(O)cc1)C(=O)N[C@@H](CC(C)C)C(=O)N[C@@H](Cc1ccc(O)cc1)C(=O)N[C@@H](Cc1ccccc1)C(=O)N[C@@H](CCCCN)C(=O)N[C@@H](CC(C)C)C(=O)N[C@@H](CCC(N)=O)C(=O)N[C@@H](CC(C)C)C(=O)N[C@@H](CC(C)C)C(=O)N[C@@H](CCCCN)C(=O)N[C@@H](CCCCN)C(N)=O |  | CCARM 3089, methicillin-resistant, Mueller-Hinton broth | 24 h | 8 µM
CC[C@H](C)[C@H](N)C(=O)N[C@@H](CC(C)C)C(=O)NCC(=O)N[C@H](CCCNC(=N)N)C(=O)N[C@H](C(=O)N[C@@H](Cc1c[nH]c2ccccc12)C(=O)N[C@@H](CCCCN)C(=O)NCC(=O)N[C@H](C(=O)N[C@@H](CCCCN)C(=O)N[C@@H](CC(=O)O)C(=O)N[C@H](C(=O)N[C@@H](CC(C)C)C(N)=O)[C@@H](C)CC)[C@@H](C)CC)[C@@H](C)CC | broth microdilution | ATCC 25923 | concentration not given, with: BSA | 6.25 µM
COc1ccnc(NC(=S)N2CCN(c3ncc(C(F)(F)F)cc3Cl)CC2)c1 |  | MRSA USA500-2273, clinical |  | 4 µM
c1ccc(CCOC2CCCc3c2[nH]c2ccccc32)cc1 (stereo not drawn) | broth microdilution | Mu50 VISA |  | > 16 µg/mL
Nc1nc(/C(=N/O)C(=O)N[C@@H]2C(=O)N3C(C(=O)O)=C(/C=C4\CCN([C@@H]5CCNC5)C4=O)CS[C@H]23)ns1 |  | CRB, PBP4 overexpressor |  | > 64 µg/mL
CC[C@H](C)[C@H](NC(=O)[C@H](CCCCN)NC(=O)[C@H](Cc1c[nH]c2ccccc12)NC(=O)[C@H](Cc1c[nH]c2ccccc12)NC(=O)[C@H](CCCCN)NC(=O)[C@H](CCCCN)NC(=O)[C@H](CCCCN)NC(=O)[C@H](Cc1c[nH]c2ccccc12)NC(=O)[C@H](CCCCN)NC(=O)[C@H](CCCCN)NC(=O)[C@H](Cc1c[nH]c2ccccc12)NC(=O)[C@H](CCCCN)NC(=O)[C@H](CCCCN)NC(=O)[C@@H](NC(=O)[C@@H](NC(=O)[C@H](CCCCN)NC(=O)[C@@H](N)CCCNC(=N)N)[C@@H](C)CC)[C@@H](C)CC)C(=O)N[C@@H](Cc1c[nH]c2ccccc12)C(=O)N[C@@H](Cc1c[nH]c2ccccc12)C(=O)N[C@@H](CCCCN)C(=O)NCCOCCOCC(N)=O | broth microdilution | MRSA 109 |  | 1.9 µg/mL
CC[C@H](C)[C@H](NC(=O)[C@H](CCCCN)NC(=O)[C@H](CC(=O)O)NC(=O)[C@H](CC(C)C)NC(=O)[C@@H](NC(=O)[C@H](CC(N)=O)NC(=O)[C@H](CC(C)C)NC(=O)[C@@H](NC(=O)[C@H](Cc1ccccc1)NC(=O)[C@H](CCCCN)NC(=O)[C@H](CCCCN)NC(=O)CNC(=O)[C@H](C)NC(=O)[C@H](CC(N)=O)NC(=O)[C@H](CCCCN)NC(=O)[C@H](Cc1ccccc1)NC(=O)[C@H](CC(N)=O)NC(=O)[C@H](CCC(=O)O)NC(=O)[C@H](Cc1c[nH]c2ccccc12)NC(=O)[C@H](CC(C)C)NC(=O)[C@@H](N)CO)[C@@H](C)CC)[C@@H](C)CC)C(=O)N[C@@H](CCCNC(=N)N)C(N)=O |  | ATCC 6538 | overnight, 37 °C, with: 4.5 mM KCl | 2 µM
C[C@@H](O)[C@H](NC(=O)[C@H](Cc1c[nH]c2ccccc12)NC(=O)[C@H](Cc1c[nH]c2ccccc12)NC(=O)[C@H](Cc1c[nH]c2ccccc12)NC(=O)[C@@H](NC(=O)[C@H](Cc1c[nH]c2ccccc12)NC(=O)[C@H](CCCNC(=N)N)NC(=O)[C@@H](N)CCCNC(=N)N)[C@@H](C)O)C(=O)N[C@@H](Cc1c[nH]c2ccccc12)C(=O)N[C@@H](CCCNC(=N)N)C(=O)N[C@@H](CCCNC(=N)N)C(N)=O | broth microdilution | 29213, Mueller-Hinton broth | 24 h, 37 °C, lowest concentration, 95% inhibition, with: BSA | 2 µM
CC(C)C[C@@H](NC(=O)CNC(=O)[C@@H](CCCCN)NC(=O)[C@@H](CC(C)C)NC(=O)[C@@H](CCCCN)NC(=O)[C@@H](CCCNC(=N)N)NC(=O)[C@@H](CC(C)C)NC(=O)[C@@H](CC(C)C)NC(=O)[C@@H](CCCNC(=N)N)NC(=O)[C@H](N)CCCNC(=N)N)C(=O)N[C@H](CCCCN)C(=O)N[C@H](CCCCN)C(=O)N[C@H](Cc1ccc(O)cc1)C(=O)N[C@H](CC(C)C)C(=O)N[C@H](Cc1ccc(O)cc1)C(=O)N[C@H](Cc1ccccc1)C(=O)N[C@H](CCCCN)C(=O)N[C@H](CC(C)C)C(=O)N[C@H](CCC(N)=O)C(=O)N[C@H](CC(C)C)C(=O)N[C@H](CC(C)C)C(=O)N[C@H](CCCCN)C(=O)N[C@H](CCCCN)C(N)=O |  | KCTC 1621, Mueller-Hinton broth | with: 150 mM NaCl | 4 µM
CC[C@H](C)[C@H](NC(=O)[C@H](CCCCN)NC(=O)[C@H](CCCCN)NC(=O)[C@H](Cc1ccccc1)NC(=O)[C@@H](NC(=O)[C@@H](NC(=O)[C@H](CCCNC(=N)N)NC(=O)[C@H](Cc1ccccc1)NC(=O)[C@@H](NC(=O)[C@H](CCCCN)NC(=O)[C@H](CCCCN)NC(=O)[C@@H](N)CCSC)[C@@H](C)CC)C(C)C)[C@@H](C)CC)C(=O)N[C@@H](CC(C)C)C(=O)N[C@@H](CCCCN)C(=O)N[C@@H](CCCNC(=N)N)C(=O)N[C@@H](CC(C)C)C(=O)N[C@H](C(=O)N[C@H](C(=O)O)C(C)C)[C@@H](C)CC | broth microdilution | ATCC 25923 | 5% fetal bovine serum | 8 µg/mL
CC[C@H](C)[C@H](NC(=O)[C@H](CC(C)C)NC(=O)[C@H](CCCNC(=N)N)NC(=O)[C@@H](N)CCCNC(=N)N)C(=O)N[C@@H](CCCNC(=N)N)C(=O)N[C@@H](CCCCN)C(=O)N[C@@H](CC(C)C)C(=O)N[C@@H](CCCCN)C(=O)NCC(=O)N1CCC[C@H]1C(=O)N[C@H](C(=O)N[C@H](C(=O)N[C@@H](Cc1ccc(O)cc1)C(=O)N[C@@H](CC(C)C)C(=O)N[C@@H](Cc1ccc(O)cc1)C(=O)N[C@@H](Cc1ccccc1)C(=O)N[C@@H](CCCCN)C(=O)N[C@@H](CC(C)C)C(=O)N[C@@H](CCC(N)=O)C(=O)N[C@@H](CC(C)C)C(=O)N[C@@H](CC(C)C)C(=O)N[C@@H](CCCCN)C(=O)N[C@@H](CCCCN)C(N)=O)[C@@H](C)CC)[C@@H](C)CC | broth microdilution | KCTC 1621, Mueller-Hinton broth | 24 h, 37 °C | 64 µM
CC[C@H](C)[C@H](NC(=O)[C@@H](NC(=O)[C@H](Cc1ccccc1)NC(=O)CNC(=O)[C@H](CCC(N)=O)NC(=O)[C@H](CCCCN)NC(=O)[C@H](C)N)C(C)C)C(=O)N[C@@H](Cc1ccc(O)cc1)C(=O)N[C@@H](CCCNC(=N)N)C(=O)N[C@H](C(=O)N[C@@H](CCCNC(=N)N)C(=O)N[C@H](C(=O)N[C@@H](CCCNC(=N)N)C(=O)N[C@@H](CCCNC(=N)N)C(=O)NCC(=O)N[C@@H](CC(N)=O)C(=O)N[C@@H](CCCNC(=N)N)C(=O)N[C@@H](CCCCN)C(N)=O)C(C)C)C(C)C | broth dilution | ATCC 25923, Mueller-Hinton broth | 24 h, 37 °C | 100 µM

Repeated from above:
Compound | assay | test system | conditions | MIC
COc1ccnc(NC(=S)N2CCN(c3ncc(C(F)(F)F)cc3Cl)CC2)c1 |  | MRSA USA500-2273, clinical |  | 4 µM
